Experimental data collected from several papers.
Numbered parts are unrelated; each lists some results of a single study.

Study 1
Target: RING finger protein unkempt homolog, zinc fingers 1-6, GST-SBP tag (UNK, Homo sapiens, UniProt Q9C0B0, residues 30-357)
Method: RNA Bind-n-Seq
Form: RNA
Sample: in vitro
Concentration: not given
Notes: RNA with constant flanks, human and mouse sites, ends assumed
Relative to: input RNA pool
Reading: higher = stronger binding
Shared flanks, not repeated: GGGAGUUCUACAGUCCGACGAUC … CAACAGAGGAUUGAGCAUCA
Construct (chain): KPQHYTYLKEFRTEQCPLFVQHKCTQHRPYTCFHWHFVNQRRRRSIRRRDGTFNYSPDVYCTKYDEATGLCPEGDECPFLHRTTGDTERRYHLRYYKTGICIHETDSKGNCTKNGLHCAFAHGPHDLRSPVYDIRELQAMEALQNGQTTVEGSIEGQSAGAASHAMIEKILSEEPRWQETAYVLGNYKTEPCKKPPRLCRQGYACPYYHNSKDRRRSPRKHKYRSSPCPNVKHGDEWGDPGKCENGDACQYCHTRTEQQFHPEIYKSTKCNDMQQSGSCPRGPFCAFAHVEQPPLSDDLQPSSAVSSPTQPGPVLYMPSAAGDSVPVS
Oligonucleotide | bound/input enrichment [ratio]
UCUCUGGAAGCUAUGGGCAGAGCUCAGUUCAUAGUUGUUGGGAAAUAAGUGCUUCAUUUUUAGUUGUUCUGAGUUGAUCCGCACCACUGCACCACAACUCAAUAUGAAAAACUAUUUAAC | 0.262
UUGUCUUGUUUUUUUUAGGUUUUGUUGUAAUUUAGAUCUAUUUCAUAUAUGGUUUGGAAACUUUCAGACUCAAUAGAACAAAAACUUUGGGUGGGAUGGGUGUCCCUGUCCCCAGCCCAC | 16.3
GUUAAUCGUGAUUCAGAAAAUCUAGCUUCACCAUCUGAAUAUCCAGAAAAUGGAGAGAGAUUUAGUUUCCUAAGCAAACCUGUUGAUGAGAAUCACCAGCAGGAUGGAGAUGAAGAUUCC | 0.165
GACGGAAUCAUGUCUCAACUGCUCGUUGUCUGCAGACCUCCAGUAUUUCCUCUGCCUCAUUUUUAAGAAAGAAGCGAUGGGGAGACAUUGCUCUUUGGCCUGGGUAUCUGGGCUCCUGCC | 0.0893
UCAGCGCCACCGCUCGACUCUGAAGCGAAAUCUCAGCUAUCAAGGAGACUUUUAAAAGGCUCUCUAAAUAUUUGGUACGAGAAUUUCUUCUCUUUAUAUCUUUUGUGAUCCCUCUACACA | 0.341

Study 2
Target: Histone acetyltransferase KAT6A, winged helix 2, GST fusion (KAT6A, Homo sapiens, UniProt Q92794, residues 85-181)
Method: protein binding microarray
Form: double-stranded DNA, one strand shown
Sample: in vitro
Concentration: not given
Notes: 8-mer, flanks averaged, mean of 2 arrays, mostly near background
Relative to: not given
Reading: higher = stronger binding
Target sequence (chain): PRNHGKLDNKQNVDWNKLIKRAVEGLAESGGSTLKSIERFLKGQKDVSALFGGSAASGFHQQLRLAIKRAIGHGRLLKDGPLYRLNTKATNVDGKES
Oligonucleotide | E-score
AAAGCTTA | 0.046
GTAAAGGA | -0.106
ACATATAC | -0.1

Study 3
Target: Centromere-binding protein 1, full length, His-tagged (CBF1, Saccharomyces cerevisiae, UniProt P17106, residues 1-351)
Chain of UniProt P17106 (whole entry, looked up): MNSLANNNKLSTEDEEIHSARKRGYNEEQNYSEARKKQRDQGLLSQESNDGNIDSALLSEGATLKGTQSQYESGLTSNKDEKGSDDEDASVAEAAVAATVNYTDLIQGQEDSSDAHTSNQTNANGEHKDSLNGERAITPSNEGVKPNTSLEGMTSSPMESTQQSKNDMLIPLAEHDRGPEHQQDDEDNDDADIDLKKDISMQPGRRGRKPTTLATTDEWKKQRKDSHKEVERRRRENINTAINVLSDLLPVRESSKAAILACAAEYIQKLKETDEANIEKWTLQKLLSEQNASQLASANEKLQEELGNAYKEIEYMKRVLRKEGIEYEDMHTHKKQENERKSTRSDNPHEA
Method: competition protein-binding microarray
Form: double-stranded DNA, one strand shown
Sample: in vitro
Concentration: 2 µM
Notes: whole 60-bp probe, lowest competitor level
With: Pho4 competitor, 0.05 µM
Reading: higher = stronger binding
Oligonucleotide | fluorescence intensity
CGCGATGTTCTCAGCATCGTGTAACCTTTGCTCGTAGTCTTGATTCGCTTGACGCTGCTG | 71.5 a.u.
CTTCTGTAAATTTGTACGGTGGGTGGACGCGCCCCGGTCTTGATTCGCTTGACGCTGCTG | 74.1 a.u.
GTCTCTAACCATGATACCGTGACTCGACTACATCCGGTCTTGATTCGCTTGACGCTGCTG | 242 a.u.
ATTTCTTTTCCAATTCACGGGTCAATTTGGTTTGGAGTCTTGATTCGCTTGACGCTGCTG | 108 a.u.

Single results of other studies
Molecule | target | test | test system | conditions | how to read | endpoint | value
PhoQ, residues 284 288 289 292 302 303 SIHMAM | PhoP, residues 12 14 15 18 19 DLLYY (Escherichia coli, UniProt P23836) | Sort-seq, refers to: YFP reporter | E. coli | PhoQ-PhoP variant library, with: 10 µM Mg2+ | relative to: high Mg2+ state, higher = stronger signaling | fold induction | 1.45

For quick reference, copied from above (study 3):
Oligonucleotide | fluorescence intensity
ATTTCTTTTCCAATTCACGGGTCAATTTGGTTTGGAGTCTTGATTCGCTTGACGCTGCTG | 108 a.u.
